Assay results gathered from unrelated publications.
Compare with care: the assays were run in different laboratories. “And” joins repeats or separate records; there may be more than shown. ± marks the error that the study gave.
MAPK8: Mitogen-activated protein kinase 8 (MAPK8, Homo sapiens, UniProt P45983)
Chain of UniProt Q96CN7 (whole entry, looked up): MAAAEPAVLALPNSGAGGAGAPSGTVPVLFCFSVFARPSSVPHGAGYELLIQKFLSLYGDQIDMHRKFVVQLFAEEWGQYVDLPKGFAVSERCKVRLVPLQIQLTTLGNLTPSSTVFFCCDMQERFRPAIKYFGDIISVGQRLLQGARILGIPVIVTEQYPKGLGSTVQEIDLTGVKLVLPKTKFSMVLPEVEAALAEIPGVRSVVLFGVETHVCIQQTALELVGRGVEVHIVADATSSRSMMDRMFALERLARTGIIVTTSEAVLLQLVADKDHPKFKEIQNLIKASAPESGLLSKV
Chain of UniProt P45983 (whole entry, unmodified, looked up): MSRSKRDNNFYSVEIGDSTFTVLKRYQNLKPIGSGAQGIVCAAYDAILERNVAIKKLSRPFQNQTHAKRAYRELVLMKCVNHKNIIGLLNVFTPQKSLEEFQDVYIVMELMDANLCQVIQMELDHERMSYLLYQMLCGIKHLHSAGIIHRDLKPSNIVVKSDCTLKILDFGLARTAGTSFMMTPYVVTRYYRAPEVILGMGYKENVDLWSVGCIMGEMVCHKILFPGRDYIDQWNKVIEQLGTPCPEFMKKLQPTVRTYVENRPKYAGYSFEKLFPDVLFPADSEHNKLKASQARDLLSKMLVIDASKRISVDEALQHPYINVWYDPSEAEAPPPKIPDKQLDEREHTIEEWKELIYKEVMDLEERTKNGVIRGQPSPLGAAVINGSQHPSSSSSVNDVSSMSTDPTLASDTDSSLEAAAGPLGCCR
Chain of UniProt Q8WVJ2 (whole entry, looked up): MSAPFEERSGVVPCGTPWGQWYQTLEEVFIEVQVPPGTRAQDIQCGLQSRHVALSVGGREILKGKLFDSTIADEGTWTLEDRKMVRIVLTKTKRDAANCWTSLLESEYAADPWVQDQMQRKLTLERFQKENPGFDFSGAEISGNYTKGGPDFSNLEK
Chain of UniProt P20273 (whole entry, looked up): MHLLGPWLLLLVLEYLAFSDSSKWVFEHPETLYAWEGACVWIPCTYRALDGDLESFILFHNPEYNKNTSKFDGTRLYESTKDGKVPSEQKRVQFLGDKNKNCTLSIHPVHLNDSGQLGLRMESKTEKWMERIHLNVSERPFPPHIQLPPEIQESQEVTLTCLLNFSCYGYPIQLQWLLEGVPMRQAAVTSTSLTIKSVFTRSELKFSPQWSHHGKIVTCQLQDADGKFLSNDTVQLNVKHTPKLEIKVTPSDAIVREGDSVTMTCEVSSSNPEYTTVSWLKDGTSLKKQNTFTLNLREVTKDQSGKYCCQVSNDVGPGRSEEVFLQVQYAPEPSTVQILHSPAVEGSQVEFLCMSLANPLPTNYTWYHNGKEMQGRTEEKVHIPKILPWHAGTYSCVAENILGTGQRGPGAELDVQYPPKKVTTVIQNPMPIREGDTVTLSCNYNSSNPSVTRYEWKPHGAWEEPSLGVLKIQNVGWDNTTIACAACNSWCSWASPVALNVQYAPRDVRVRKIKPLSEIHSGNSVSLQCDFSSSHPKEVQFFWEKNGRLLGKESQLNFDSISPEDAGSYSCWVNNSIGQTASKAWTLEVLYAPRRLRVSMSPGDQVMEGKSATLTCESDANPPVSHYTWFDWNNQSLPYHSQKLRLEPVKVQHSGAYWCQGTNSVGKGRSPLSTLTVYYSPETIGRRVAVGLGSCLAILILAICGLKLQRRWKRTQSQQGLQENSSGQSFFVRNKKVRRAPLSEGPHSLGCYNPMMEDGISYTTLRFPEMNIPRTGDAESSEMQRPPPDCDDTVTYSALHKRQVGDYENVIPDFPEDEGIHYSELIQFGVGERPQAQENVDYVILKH
Chain of UniProt Q8IZX4 (whole entry, looked up): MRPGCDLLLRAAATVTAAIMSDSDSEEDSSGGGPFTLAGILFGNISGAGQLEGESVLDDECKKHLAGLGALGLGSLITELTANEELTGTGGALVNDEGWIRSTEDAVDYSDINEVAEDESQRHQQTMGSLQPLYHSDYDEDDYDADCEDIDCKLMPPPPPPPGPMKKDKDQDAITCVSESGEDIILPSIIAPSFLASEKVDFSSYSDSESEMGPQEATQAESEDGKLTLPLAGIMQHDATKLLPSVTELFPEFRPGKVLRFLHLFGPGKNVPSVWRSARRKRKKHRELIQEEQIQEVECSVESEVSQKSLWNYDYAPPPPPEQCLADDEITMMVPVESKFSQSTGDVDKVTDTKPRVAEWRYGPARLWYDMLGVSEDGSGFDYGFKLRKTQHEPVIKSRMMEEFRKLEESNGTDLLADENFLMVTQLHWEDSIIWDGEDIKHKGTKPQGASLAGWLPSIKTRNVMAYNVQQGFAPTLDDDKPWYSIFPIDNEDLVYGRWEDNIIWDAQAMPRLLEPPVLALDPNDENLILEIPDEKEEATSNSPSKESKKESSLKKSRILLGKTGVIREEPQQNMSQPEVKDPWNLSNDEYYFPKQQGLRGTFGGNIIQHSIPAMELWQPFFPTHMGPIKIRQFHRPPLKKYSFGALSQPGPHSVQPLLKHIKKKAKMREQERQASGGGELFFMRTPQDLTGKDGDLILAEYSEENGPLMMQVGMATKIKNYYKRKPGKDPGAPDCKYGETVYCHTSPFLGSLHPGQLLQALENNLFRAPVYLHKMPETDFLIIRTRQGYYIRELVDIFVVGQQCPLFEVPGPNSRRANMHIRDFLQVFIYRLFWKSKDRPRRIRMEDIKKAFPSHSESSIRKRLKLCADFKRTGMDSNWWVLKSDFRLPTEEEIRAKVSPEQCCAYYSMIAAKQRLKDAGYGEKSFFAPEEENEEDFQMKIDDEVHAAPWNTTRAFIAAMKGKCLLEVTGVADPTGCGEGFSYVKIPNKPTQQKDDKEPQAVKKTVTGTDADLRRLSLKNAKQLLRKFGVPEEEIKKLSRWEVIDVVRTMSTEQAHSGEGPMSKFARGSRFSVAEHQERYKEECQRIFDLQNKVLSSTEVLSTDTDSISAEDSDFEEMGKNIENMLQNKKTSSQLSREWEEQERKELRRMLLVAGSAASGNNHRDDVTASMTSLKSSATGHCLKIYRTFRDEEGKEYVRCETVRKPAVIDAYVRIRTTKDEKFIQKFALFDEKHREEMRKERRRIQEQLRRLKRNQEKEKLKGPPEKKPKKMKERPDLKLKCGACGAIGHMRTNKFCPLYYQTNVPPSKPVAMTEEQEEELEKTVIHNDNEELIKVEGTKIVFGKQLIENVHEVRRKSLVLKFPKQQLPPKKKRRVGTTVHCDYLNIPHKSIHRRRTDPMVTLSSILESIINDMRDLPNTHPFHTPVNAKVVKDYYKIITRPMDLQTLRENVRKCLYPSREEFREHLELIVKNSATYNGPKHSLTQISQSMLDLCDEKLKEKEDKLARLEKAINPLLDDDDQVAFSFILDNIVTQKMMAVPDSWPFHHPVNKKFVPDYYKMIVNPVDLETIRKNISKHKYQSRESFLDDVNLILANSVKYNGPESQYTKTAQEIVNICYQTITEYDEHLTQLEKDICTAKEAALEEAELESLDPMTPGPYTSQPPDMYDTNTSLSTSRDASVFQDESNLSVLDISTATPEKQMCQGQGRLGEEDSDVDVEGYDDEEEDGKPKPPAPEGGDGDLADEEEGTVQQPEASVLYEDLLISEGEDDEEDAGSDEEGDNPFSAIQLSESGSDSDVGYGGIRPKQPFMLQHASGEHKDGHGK
Chain of UniProt P47936 (whole entry, looked up): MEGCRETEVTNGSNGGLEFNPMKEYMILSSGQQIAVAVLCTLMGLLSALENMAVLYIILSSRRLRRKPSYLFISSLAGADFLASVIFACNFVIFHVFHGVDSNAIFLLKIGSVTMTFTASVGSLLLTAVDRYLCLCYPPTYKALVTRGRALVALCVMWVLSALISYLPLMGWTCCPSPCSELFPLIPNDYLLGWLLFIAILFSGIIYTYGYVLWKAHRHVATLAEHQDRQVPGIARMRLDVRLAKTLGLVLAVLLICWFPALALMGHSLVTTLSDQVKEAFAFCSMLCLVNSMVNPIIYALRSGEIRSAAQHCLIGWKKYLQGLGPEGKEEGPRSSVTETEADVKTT
Chain of UniProt Q8TDS7 (whole entry, looked up): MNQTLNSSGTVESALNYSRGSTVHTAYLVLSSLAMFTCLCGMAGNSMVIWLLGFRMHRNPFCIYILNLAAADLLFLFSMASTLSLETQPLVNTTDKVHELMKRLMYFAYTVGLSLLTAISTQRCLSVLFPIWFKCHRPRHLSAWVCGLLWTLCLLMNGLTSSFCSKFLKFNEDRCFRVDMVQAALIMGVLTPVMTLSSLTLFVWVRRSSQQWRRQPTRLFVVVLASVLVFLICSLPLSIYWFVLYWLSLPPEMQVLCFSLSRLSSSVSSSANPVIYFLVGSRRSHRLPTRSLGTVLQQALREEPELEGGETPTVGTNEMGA
Chain of UniProt Q9BT09 (whole entry, looked up): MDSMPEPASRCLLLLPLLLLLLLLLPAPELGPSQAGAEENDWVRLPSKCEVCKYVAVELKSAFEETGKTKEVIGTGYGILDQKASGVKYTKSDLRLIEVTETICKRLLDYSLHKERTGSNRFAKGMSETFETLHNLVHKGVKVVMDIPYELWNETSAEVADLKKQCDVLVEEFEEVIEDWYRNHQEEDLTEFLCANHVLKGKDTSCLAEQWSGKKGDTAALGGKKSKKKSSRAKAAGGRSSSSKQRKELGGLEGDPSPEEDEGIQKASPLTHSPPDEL
Chain of UniProt P43307 (whole entry, looked up): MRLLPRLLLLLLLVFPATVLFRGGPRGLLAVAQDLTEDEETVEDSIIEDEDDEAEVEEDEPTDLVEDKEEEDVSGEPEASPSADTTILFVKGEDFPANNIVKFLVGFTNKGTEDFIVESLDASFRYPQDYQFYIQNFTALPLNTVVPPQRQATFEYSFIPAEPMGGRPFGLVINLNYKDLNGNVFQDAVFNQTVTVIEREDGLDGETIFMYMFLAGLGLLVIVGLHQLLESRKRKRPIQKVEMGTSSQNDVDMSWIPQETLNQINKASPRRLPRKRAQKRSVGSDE

`CN(C)c1ccc(-n2cc(COC(=O)[C@]3(C)C=C(C(=O)OC(C)(C)C)C(=O)CC3)nn2)cc1` gave a fraction bound of 0.912 (MAPK8; D-peptide binding, inhibitor, FP peptide displacement; 3.125 µM; lower is stronger displacement).
For `CC(C)(C(=O)N1CCC(Nc2nc3c(c(=O)[nH]2)CCCC3)CC1)c1ccc(Cl)cc1`, the Emax was 89.9 ± 13.7% (MRGPRD, part with Gi1 (Homo sapiens, UniProt Q8TDS7); Gi1 dissociation, agonist, BRET2; relative to: wild type).
`C=CC(=O)N1CCCC(n2c(=O)c3ncccc3n(Cc3ccc(Oc4ccccc4)cc3)c2=O)C1` (stereo not drawn) — result for “melting temperature shift”: -7.12 (NudC domain-containing protein 2 (NUDCD2, Homo sapiens, UniProt Q8WVJ2); thermal proteome profiling, refers to: NUDCD2; 10 µM, destabilized proteins, unit not given; relative to: vehicle).
For `O=C(O)c1ccccc1SC1=NS(=O)(=O)c2ccccc21`, activity read “inactive” (Pyruvate kinase PKLR (PKLR, Homo sapiens, UniProt P30613); enzyme activity, activator; 10 µM).
`COc1cc(-c2cn(C)c(=O)c3cnccc23)cc(OC)c1CN(C)C` has a ΔTm of 0 °C (Bromodomain testis-specific protein, BD1 (BRDT, Homo sapiens, UniProt Q58F21)).
`COC(=O)[C@]1(C)C=C(C(=O)Nc2cccc(C(=O)Nc3ccc(Nc4nccc(-c5cccnc5)n4)c(C)c3)c2)C(=O)CC1` has a kon of 290000 M⁻¹ s⁻¹ (Mitogen-activated protein kinase 8 (MAPK8, Homo sapiens, UniProt P45983, C116S); binding, SPR; 100, 300, 1000 nM, 1:1 binding model).
`CCC1(CC)C(=O)N(c2cc(C(=O)OC)cc(C(=O)N3CCN(Cc4ccc(Br)cc4)CC3)c2)C1=O` has a selectivity ratio of 5 (Dipeptidyl peptidase 8 (Homo sapiens, UniProt Q6V1X1); inhibitor; together with: GP-AMC substrate; relative to: Ki' DPP9 over Ki' DPP8).
`CC(=O)N[C@H]1[C@H]([C@H](O)[C@H](O)CNC(=O)c2ccc(-c3ccccc3)cc2)O[C@@](OCc2cccc(Cl)c2Cl)(C(=O)O)C[C@@H]1O` has a binding stoichiometry of 1.2 ± 0.08 (B-cell receptor CD22 (CD22, Homo sapiens, UniProt P20273); isothermal titration calorimetry; concentration not given).
The iBAQ abundance of `N#CN1CC[C@H](C(=O)Nc2nc3c(s2)CN(C(=O)Cn2cc(COCCOCCOCCOCCNC(=O)CCCC[C@@H]4SC[C@@H]5NC(=O)N[C@@H]54)nn2)CC3)C1` is reported as 3.77e+08 and 2.11e+08 and 1.43e+08 (Isochorismatase domain-containing protein 1 (Homo sapiens, UniProt Q96CN7); probe binding, affinity probe, neutravidin pull-down LC-MS/MS; HEK293T, cell lysate; 5 µM, 1 h, single replicate, unit not given; higher = more pulled down).
`CN(C)c1ccc(C#CCOC(=O)[C@]2(C)C=C(C(=O)OC(C)(C)C)C(=O)CC2)cc1` has a fraction bound of 0.259 (MAPK8; D-peptide binding, inhibitor, FP peptide displacement; 125 µM; lower is stronger displacement).
For `CCCCCC(O)/C=C/C=O` (stereo not drawn), “isoTOP-ABPP competition ratio” read 1.3 (Protein phosphatase 1G (Homo sapiens, UniProt O15355); competitive isoTOP-ABPP, refers to: PPM1G cysteine peptide; Ramos soluble proteome; 100 µM, together with: iodoacetamide probe; relative to: DMSO over compound-treated, higher = stronger cysteine blockade).
The fraction bound of `CC(C)(C)OC(=O)C1=C[C@@](C)(C(=O)OCC#Cc2ccncc2)CCC1=O` is reported as 0.42 (MAPK8; D-peptide binding, inhibitor, FP peptide displacement; 25 µM; lower is stronger displacement).
With `CCOC(=O)[C@@](CC)(CCCSCCOCCOCCN)NC(=O)c1ccc(C2CC2)c(Cc2ccc(F)cc2)n1` the Emax was 61% (Cannabinoid receptor 2 (Cnr2, Mus musculus, UniProt P47936); cAMP, agonist).
With `COC(=O)[C@@]1(C)C=C(C(=O)OC(C)(C)C)C(=O)CC1` the fraction bound was 0.509 (MAPK8; D-peptide binding, inhibitor, FP peptide displacement; 125 µM; lower is stronger displacement).
`COC(=O)c1cccc(-c2ccccc2O[C@@H]2O[C@H](CO)[C@H](O)[C@H](O)[C@H]2O)c1` has an inhibition (PI10) of 22.4 ± 2.6% (Adhesin FmlH, lectin domain (Escherichia coli, UniProt Q1RBS0); binding to desialylated BSM, competition ELISA; UPEC UTI89; 10 µM).
Under “isoTOP-ABPP competition ratio”, `CCCCCC=CC=C1C(=O)C=CC1CC=CCCCC(=O)O` (stereo not drawn) is recorded as 12 (Protein canopy homolog 3 (Homo sapiens, UniProt Q9BT09); competitive isoTOP-ABPP; proteome, soluble, MDA-MB-231; 100 µM, 60 min, together with: iodoacetamide probe; relative to: DMSO over compound-treated, higher = stronger cysteine blockade).
With `Cc1cc(C)cc(COc2cc3c(cc2OCc2cc(C)cc(C)c2)C2CC(O)(Cc4cn(CCOCCOCCNC(=O)CCCCC5SCC6NC(=O)NC65)nn4)CC(C)N2CC3)c1` (stereo not drawn) the SILAC ratio was 1.33 (Translocon-associated protein subunit alpha (Homo sapiens, UniProt P43307); biotinylated probe pull-down, refers to: SSR1; 10 µM probe; relative to: heavy over light).
`COC(=O)[C@]1(Cc2ccccc2)C=C(C(=O)OC(C)(C)C)C(=O)CC1` gave a fraction bound of -0.0532 (MAPK8; D-peptide binding, inhibitor, FP peptide displacement; 62.5 µM; lower is stronger displacement).
`Cc1cc(NC(=O)[C@H](O)c2cc(F)cc(F)c2)ccc1-c1cnc(N)c(C(=O)NC(C)C)c1` has a remaining binding of 64% (eIF-2-alpha kinase GCN2, C-terminal kinase domain (EIF2AK4, Homo sapiens, UniProt Q9P2K8, S808G); binding, competition with immobilised ligand; 10 µM).
`CC(=O)N1c2ccc(-c3ccc(CNC(=O)c4cn5cc(-c6cnc(N)nc6)nc(N6CCOCC6)c5n4)cc3)cc2CC[C@@H]1C` has a remaining binding of 2.7% (Transcription initiation factor TFIID subunit 1-like, BD2 (TAF1L, Homo sapiens, UniProt Q8IZX4); binding, competition with immobilised ligand; 10 µM).
The fraction bound of `C=C1CC2(C(=O)OC)C=C(C(=O)OC(C)(C)C)C(=O)C1C2` (stereo not drawn) is reported as 0.119 (MAPK8; D-peptide binding, inhibitor, FP peptide displacement; 500 µM; lower is stronger displacement).

Excerpt of the above:
`CN(C)c1ccc(-n2cc(COC(=O)[C@]3(C)C=C(C(=O)OC(C)(C)C)C(=O)CC3)nn2)cc1` gave a fraction bound of 0.912 (MAPK8; D-peptide binding, inhibitor, FP peptide displacement; 3.125 µM; lower is stronger displacement).
For `O=C(O)c1ccccc1SC1=NS(=O)(=O)c2ccccc21`, activity read “inactive” (Pyruvate kinase PKLR (PKLR, Homo sapiens, UniProt P30613); enzyme activity, activator; 10 µM).
